Experimental data gathered from unrelated publications.
Numbers after ± are the reported error.
T1: RNA aptamer A13U; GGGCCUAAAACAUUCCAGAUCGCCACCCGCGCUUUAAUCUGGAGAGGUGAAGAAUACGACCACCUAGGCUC

`O=C(O)C1OC(Oc2cccc(-c3nc(N4CCOCC4)c4oc5ncccc5c4n3)c2)C(O)C(O)C1O` (stereo not drawn) — result for “substrate inhibition constant”: 86.8 ± 24.3 µM (UGT1A9 (Homo sapiens, UniProt O60656); glucuronidation, substrate, recombinant enzyme).
`CO.COc1ccc2c(c1)c(CC(=O)[O-])c(C)n2C(=O)c1ccc(Cl)cc1.COc1ccc2c(c1)c(CC(=O)[O-])c(C)n2C(=O)c1ccc(Cl)cc1.O.[Co+2].c1ccc(Nc2ccccn2)nc1`: “cathodic peak potential shift” 3 mV (calf thymus DNA; cyclic voltammetry; DMSO/buffer; Co(II)/Co(I) couple; baseline: without DNA).
`Cc1cc(C)c2ccc(C3=C(O)c4ccccc4C3=O)nc2c1O` gave a remaining activity of 35% (CD38 (Homo sapiens, UniProt P28907); enzyme activity, inhibitor, fluorescence; 50 µM).
With `CCCCCCCC(=O)Nc1ccc(OC)nc1C` the apparent Vmax was 380 pmol/min/µg (CES1 (Homo sapiens, UniProt P23141); enzyme activity, substrate; pH 8, 37 °C, substrate 3.13 to 100 µM).
`CNc1ccccc1C(=O)O[C@H]1C[C@H](n2cnc3c(N)ncnc32)O[C@@H]1COP(=O)(O)OP(=O)(O)O`: “dissociation rate constant” 37.6 ± 1.06 s⁻¹ (Unconventional myosin-Va (Gallus gallus, UniProt Q02440, D297C/G292C/I296C/S293C/V295G); stopped-flow FRET, linear fit intercept; 15 °C, added: EDTA 4 mM).
`CC(=O)N[C@@H](CC(=O)O)C(=O)N[C@H]1CSSC[C@@H](C(=O)N[C@H](C(=O)N[C@@H](Cc2ccccc2)C(=O)N[C@@H](Cc2c[nH]cn2)C(N)=O)[C@@H](C)O)NC(=O)[C@H](Cc2c[nH]c3ccccc23)NC(=O)[C@H](C(C)C)NC(=O)[C@H](CC(C)C)NC(=O)[C@H](CCC(=O)O)NC(=O)CNC(=O)[C@H](CC(C)C)NC(=O)[C@H](Cc2c[nH]cn2)NC(=O)[C@H](Cc2ccc(O)cc2)NC(=O)[C@H](C)NC1=O` has a ΔH of -15 kcal/mol (Immunoglobulin heavy constant gamma 1 (IGHG1, Homo sapiens, UniProt P01857); binding, ITC; 25 °C, added: Herceptin).
The ligand efficiency of `CC(C)C[C@H](NC(=O)[C@H](CO)NC(=O)[C@H](CO)NC(=O)[C@H](CC(C)C)NC(=O)[C@@H](NC(=O)[C@@H]1CCCN1C(=O)[C@H](Cc1c[nH]c2ccccc12)NC(=O)[C@H](Cc1ccc(O)cc1)NC(=O)[C@@H]1CCCN1C(=O)[C@H](CC(C)C)NC(=O)[C@H](Cc1ccc(O)cc1)NC(=O)[C@@H](N)CCCCN)C(C)C)C(=O)O` is reported as 0.086 (EPHA4 (Homo sapiens, UniProt P54764); isothermal titration calorimetry).
With `O=c1ccn(C2OC(COP(=O)(O)OP(=O)(O)OP(=O)(O)O)C(O)C2O)c(=O)[nH]1` (stereo not drawn) the Rmax was 15.2 ± 0.02 RU (Uncharacterized protein (Trypanosoma brucei brucei, UniProt Q386Q8); binding, surface plasmon resonance).
`CC(=O)NCCN(CCC(=O)NCCN(CCC(=O)NCCN(CCC(=O)NCCC(N)=O)C(=O)[C@@H](N)CCCNC(=N)N)C(=O)[C@@H](N)CCCCN)C(=O)[C@@H](N)Cc1ccccc1` — result for “binding free energy ΔG°”: -8.22 ± 0.359 kcal/mol (HIV-1 TAR RNA; 25 °C).
The Kd of `CN(C)[C@@H]1C(=O)C(C(N)=O)=C(O)[C@@]2(O)C(=O)C3=C(O)c4c(O)cccc4[C@@](C)(O)[C@H]3C[C@@H]12` is reported as 222 nM (T1, RNA aptamer A13U; fluorescence titration; pH 7.5, 25 °C, MgCl2 10 mM).
With `CC(=O)NCCN(CCC(=O)NCCN(CCC(=O)NCCN(CCC(=O)NCCC(N)=O)C(=O)[C@@H](N)Cc1ccccc1)C(=O)[C@@H](N)Cc1ccccc1)C(=O)[C@@H](N)CCCNC(=N)N` the non-electrostatic TΔS° was -0.244 ± 0.263 kcal/mol (HIV-1 TAR RNA).
Under “complex II activity”, `C=CCc1ccc(O)c(-c2cc(CC=C)ccc2OCCCCCCCCCC[P+](c2ccccc2)(c2ccccc2)c2ccccc2)c1` is recorded as “no effect” (Succinate dehydrogenase complex (Homo sapiens, UniProt O14521+P21912+P31040+Q99643); succinate-driven oxygen consumption; UACC-62; 0.2 µM, 24 h).

Some of these lines once more:
`CC(=O)NCCN(CCC(=O)NCCN(CCC(=O)NCCN(CCC(=O)NCCC(N)=O)C(=O)[C@@H](N)CCCNC(=N)N)C(=O)[C@@H](N)CCCCN)C(=O)[C@@H](N)Cc1ccccc1` — result for “binding free energy ΔG°”: -8.22 ± 0.359 kcal/mol (HIV-1 TAR RNA; 25 °C).
`CO.COc1ccc2c(c1)c(CC(=O)[O-])c(C)n2C(=O)c1ccc(Cl)cc1.COc1ccc2c(c1)c(CC(=O)[O-])c(C)n2C(=O)c1ccc(Cl)cc1.O.[Co+2].c1ccc(Nc2ccccn2)nc1`: “cathodic peak potential shift” 3 mV (calf thymus DNA; cyclic voltammetry; DMSO/buffer; Co(II)/Co(I) couple; baseline: without DNA).
